Measured values gathered from unrelated publications.
Each numbered part is a random draw from the data of one study; scales do not carry over between parts. “And” joins repeats or separate records; there may be more than shown.
Chain of UniProt P10721 (whole entry, unmodified, looked up): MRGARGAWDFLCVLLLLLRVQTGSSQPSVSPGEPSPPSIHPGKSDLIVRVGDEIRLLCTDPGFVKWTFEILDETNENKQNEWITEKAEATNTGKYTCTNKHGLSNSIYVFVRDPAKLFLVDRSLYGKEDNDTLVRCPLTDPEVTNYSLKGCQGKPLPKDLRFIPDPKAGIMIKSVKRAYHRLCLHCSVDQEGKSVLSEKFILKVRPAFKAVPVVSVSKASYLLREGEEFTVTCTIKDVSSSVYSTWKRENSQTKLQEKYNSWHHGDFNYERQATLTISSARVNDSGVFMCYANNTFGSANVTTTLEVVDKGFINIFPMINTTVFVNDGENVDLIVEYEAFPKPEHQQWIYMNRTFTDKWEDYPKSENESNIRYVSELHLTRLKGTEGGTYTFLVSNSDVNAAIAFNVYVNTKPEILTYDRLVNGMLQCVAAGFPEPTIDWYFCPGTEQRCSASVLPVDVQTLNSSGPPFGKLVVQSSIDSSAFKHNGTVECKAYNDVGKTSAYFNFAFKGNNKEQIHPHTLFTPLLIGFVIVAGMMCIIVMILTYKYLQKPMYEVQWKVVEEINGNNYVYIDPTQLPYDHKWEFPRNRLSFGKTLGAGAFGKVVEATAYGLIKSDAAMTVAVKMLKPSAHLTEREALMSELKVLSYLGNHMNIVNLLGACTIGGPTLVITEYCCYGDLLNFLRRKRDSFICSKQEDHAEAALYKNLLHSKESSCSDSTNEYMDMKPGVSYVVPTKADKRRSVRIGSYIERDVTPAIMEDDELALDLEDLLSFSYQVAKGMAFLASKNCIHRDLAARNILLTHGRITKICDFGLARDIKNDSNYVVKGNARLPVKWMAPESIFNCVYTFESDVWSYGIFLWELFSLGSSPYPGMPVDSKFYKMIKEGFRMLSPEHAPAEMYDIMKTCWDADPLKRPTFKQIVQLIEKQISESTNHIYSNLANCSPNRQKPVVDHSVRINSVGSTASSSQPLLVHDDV
Chain of UniProt P21860 (whole entry, looked up): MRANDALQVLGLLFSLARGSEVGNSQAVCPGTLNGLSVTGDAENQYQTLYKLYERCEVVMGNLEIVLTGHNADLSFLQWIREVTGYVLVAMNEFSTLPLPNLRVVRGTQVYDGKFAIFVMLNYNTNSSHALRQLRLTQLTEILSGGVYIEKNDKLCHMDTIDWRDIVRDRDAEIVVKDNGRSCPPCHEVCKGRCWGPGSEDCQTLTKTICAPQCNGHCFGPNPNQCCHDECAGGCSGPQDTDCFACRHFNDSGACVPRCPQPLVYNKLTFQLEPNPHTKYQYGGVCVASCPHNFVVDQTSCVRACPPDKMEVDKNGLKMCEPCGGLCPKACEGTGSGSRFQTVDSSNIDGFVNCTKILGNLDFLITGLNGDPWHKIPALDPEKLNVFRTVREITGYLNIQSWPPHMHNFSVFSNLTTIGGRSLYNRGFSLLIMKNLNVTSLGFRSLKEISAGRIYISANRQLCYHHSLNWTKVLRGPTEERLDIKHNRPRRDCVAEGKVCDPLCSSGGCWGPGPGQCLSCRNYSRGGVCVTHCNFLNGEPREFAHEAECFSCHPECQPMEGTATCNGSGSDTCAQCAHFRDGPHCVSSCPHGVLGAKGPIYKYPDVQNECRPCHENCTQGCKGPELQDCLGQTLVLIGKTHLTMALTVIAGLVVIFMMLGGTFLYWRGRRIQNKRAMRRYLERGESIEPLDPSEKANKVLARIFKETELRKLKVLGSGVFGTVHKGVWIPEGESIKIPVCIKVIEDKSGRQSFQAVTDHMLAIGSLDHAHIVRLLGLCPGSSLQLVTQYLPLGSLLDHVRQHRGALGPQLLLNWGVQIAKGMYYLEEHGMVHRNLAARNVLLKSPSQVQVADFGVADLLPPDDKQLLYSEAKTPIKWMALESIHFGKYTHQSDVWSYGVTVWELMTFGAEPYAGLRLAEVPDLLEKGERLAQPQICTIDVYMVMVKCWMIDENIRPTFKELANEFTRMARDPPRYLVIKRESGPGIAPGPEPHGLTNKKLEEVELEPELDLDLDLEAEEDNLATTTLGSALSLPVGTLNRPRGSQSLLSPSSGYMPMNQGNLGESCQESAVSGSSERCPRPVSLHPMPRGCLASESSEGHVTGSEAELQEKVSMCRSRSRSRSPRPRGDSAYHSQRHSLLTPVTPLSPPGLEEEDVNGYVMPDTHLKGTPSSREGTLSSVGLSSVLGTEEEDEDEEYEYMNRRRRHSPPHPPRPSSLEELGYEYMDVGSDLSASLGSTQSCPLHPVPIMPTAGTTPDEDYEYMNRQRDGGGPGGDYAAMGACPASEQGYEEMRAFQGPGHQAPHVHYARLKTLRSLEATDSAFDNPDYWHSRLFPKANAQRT
Chain of UniProt Q2M2I8 (whole entry, looked up): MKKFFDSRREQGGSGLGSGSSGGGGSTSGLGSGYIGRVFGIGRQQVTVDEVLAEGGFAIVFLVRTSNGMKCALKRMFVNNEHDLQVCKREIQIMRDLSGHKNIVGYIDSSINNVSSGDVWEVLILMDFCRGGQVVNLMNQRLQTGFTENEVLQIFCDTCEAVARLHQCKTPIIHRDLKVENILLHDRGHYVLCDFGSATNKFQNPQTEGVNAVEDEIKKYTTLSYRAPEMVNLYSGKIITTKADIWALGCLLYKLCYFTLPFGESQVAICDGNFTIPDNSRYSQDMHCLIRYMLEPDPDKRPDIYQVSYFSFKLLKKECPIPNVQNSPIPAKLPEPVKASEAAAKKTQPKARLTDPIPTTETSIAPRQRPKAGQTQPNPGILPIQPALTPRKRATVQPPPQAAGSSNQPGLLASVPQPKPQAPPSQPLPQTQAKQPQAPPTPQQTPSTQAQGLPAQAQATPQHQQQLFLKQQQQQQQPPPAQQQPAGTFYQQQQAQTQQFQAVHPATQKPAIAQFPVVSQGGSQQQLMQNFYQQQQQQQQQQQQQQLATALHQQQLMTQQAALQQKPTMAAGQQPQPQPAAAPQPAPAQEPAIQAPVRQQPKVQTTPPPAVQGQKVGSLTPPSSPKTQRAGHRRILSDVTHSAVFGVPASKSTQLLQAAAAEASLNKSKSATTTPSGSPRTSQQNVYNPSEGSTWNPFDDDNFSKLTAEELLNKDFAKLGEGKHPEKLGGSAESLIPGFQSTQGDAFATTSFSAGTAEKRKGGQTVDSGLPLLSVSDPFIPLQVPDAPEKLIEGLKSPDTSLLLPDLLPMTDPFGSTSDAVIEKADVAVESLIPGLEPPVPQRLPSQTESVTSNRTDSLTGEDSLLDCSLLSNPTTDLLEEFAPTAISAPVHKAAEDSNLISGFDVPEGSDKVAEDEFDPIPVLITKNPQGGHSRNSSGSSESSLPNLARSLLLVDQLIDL
Chain of UniProt Q99558 (whole entry, looked up): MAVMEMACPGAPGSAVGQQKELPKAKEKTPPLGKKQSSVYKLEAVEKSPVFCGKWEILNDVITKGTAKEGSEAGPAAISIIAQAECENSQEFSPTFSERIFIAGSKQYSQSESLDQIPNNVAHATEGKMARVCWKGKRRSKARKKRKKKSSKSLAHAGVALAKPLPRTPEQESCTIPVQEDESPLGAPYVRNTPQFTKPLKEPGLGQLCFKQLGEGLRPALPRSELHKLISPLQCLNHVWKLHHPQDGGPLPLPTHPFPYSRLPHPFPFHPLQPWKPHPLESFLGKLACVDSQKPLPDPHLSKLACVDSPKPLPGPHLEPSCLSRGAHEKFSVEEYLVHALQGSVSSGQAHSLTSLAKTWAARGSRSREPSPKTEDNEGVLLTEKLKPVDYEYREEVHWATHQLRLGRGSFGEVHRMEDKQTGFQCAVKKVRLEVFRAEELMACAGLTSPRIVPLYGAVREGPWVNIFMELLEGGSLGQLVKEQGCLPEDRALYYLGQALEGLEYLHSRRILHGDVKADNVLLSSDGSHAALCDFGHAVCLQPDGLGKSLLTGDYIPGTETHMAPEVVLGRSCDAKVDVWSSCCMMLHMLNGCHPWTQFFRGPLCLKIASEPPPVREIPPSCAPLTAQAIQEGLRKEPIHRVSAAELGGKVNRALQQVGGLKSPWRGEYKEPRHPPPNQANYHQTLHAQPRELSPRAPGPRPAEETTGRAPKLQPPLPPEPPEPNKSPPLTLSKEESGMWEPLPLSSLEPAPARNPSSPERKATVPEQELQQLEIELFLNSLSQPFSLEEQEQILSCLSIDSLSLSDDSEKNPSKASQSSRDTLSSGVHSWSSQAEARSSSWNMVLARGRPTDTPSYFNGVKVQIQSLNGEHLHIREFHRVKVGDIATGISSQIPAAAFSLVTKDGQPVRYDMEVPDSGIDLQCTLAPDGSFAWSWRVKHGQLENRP
Chain of UniProt P0C264 (whole entry, looked up): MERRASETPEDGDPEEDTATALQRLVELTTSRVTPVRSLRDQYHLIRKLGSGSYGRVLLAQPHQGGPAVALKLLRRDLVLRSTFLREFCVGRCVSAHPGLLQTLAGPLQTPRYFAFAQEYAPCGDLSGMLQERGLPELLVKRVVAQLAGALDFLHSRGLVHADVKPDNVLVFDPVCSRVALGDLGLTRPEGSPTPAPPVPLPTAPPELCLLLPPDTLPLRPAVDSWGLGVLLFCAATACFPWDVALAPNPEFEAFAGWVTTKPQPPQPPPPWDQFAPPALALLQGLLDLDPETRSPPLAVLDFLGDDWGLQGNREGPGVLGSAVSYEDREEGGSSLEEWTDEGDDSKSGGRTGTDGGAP

Series 1 — host: human; sample: microsomes or S9; tested at: 2 µM; time: 0.5 h
| SMILES | remaining compound |
| --- | --- |
| CC1(C)CCN(C(=O)c2cc(C#N)cs2)c2cc(Br)ccc21 | 59.3% |
| Cc1nc(S(=O)(=O)Nc2cnc3ccnn3c2)cn1C | > 100% |
| CSC1CC2CCC(C1)N2C(=O)c1cc(C2CC2)on1 (stereo not drawn) | 30.6% |
| Brc1ccc2c(c1)C1CC(c3ccco3)=NN1C(c1ccncc1)O2 (stereo not drawn) | 52.4% |

Series 2 — observed: enzyme activity; tested at: 5 µM; relative to: untreated control
SMILES: O=C(Nc1cnn(-c2csc(C(=O)NC3COC3)c2)c1)Nc1c(F)cccc1Cl
| target | remaining activity [%] |
| --- | --- |
| Platelet-derived growth factor receptor alpha (PDGFRA, Homo sapiens, UniProt P16234) | 106 |
| Protein kinase C theta type (PRKCQ, Homo sapiens, UniProt Q04759) | 92.2 |
| Tyrosine-protein kinase Blk (BLK, Homo sapiens, UniProt P51451) | 95.5 |
| Serine/threonine-protein kinase SBK1 (SBK1, Homo sapiens, UniProt Q52WX2) | 95.7 |
| Serine/threonine-protein kinase PAK 2 (PAK2, Homo sapiens, UniProt Q13177) | 92.2 |

Series 3 — observed: cell-free assay; technique: competition with immobilised ligand; tested at: 1 µM
SMILES: CNC(=O)Nc1ccc2c(c1)CC[C@@]21OC(=O)N(CC(=O)N(Cc2ccc(F)cc2)[C@@H](C)C(F)(F)F)C1=O
| target | remaining binding [%] |
| --- | --- |
| Mast/stem cell growth factor receptor Kit (KIT, Homo sapiens, UniProt P10721) | 100 |
| Phosphatidylinositol 4,5-bisphosphate 3-kinase catalytic subunit alpha isoform (PIK3CA, Homo sapiens, UniProt P42336, H1047Y) | 91 |
| Serine/threonine-protein kinase LATS2 (LATS2, Homo sapiens, UniProt Q9NRM7) | 47 |
| Mitogen-activated protein kinase kinase kinase 14 (MAP3K14, Homo sapiens, UniProt Q99558) | 67 |
| Dual specificity mitogen-activated protein kinase kinase 7 (MAP2K7, Homo sapiens, UniProt O14733) | 97 |
| Mast/stem cell growth factor receptor Kit (KIT, Homo sapiens, UniProt P10721, L576P) | 100 |
| Ribosomal protein S6 kinase alpha-2, C-terminal kinase domain (RPS6KA2, Homo sapiens, UniProt Q15349) | 90 |
| Phosphatidylinositol 4-phosphate 3-kinase C2 domain-containing subunit beta (PIK3C2B, Homo sapiens, UniProt O00750) | 100 |
| Mitogen-activated protein kinase kinase kinase 11 (MAP3K11, Homo sapiens, UniProt Q16584) | 73 |
| Serine/threonine-protein kinase 3 (STK3, Homo sapiens, UniProt Q13188) | 100 |
| Phosphatidylinositol 4,5-bisphosphate 3-kinase catalytic subunit delta isoform (PIK3CD, Homo sapiens, UniProt O00329) | 92 |
| Rho-associated protein kinase 1 (ROCK1, Homo sapiens, UniProt Q13464) | 72 |
| Ribosomal protein S6 kinase alpha-4, C-terminal kinase domain (RPS6KA4, Homo sapiens, UniProt O75676) | 72 |
| Receptor-interacting serine/threonine-protein kinase 1 (RIPK1, Homo sapiens, UniProt Q13546) | 100 |
| Serine/threonine-protein kinase 38 (STK38, Homo sapiens, UniProt Q15208) | 100 |
| Uncharacterized serine/threonine-protein kinase SBK3 (SBK3, Homo sapiens, UniProt P0C264) | 93 |
| Mast/stem cell growth factor receptor Kit (KIT, Homo sapiens, UniProt P10721, A829P) | 79 |
| Receptor tyrosine-protein kinase erbB-3 (ERBB3, Homo sapiens, UniProt P21860) | 89 |
| SRSF protein kinase 2 (SRPK2, Homo sapiens, UniProt P78362) | 100 |
| 1-phosphatidylinositol 3-phosphate 5-kinase (PIKFYVE, Homo sapiens, UniProt Q9Y2I7) | 58 |
| AP2-associated protein kinase 1 (AAK1, Homo sapiens, UniProt Q2M2I8) | 100 |
| Fibroblast growth factor receptor 4 (FGFR4, Homo sapiens, UniProt P22455) | 100 |

Series 4 — mode: antagonist
Target: Beta-1 adrenergic receptor (ADRB1, Homo sapiens, UniProt P08588)
Chain of UniProt P08588 (whole entry, looked up): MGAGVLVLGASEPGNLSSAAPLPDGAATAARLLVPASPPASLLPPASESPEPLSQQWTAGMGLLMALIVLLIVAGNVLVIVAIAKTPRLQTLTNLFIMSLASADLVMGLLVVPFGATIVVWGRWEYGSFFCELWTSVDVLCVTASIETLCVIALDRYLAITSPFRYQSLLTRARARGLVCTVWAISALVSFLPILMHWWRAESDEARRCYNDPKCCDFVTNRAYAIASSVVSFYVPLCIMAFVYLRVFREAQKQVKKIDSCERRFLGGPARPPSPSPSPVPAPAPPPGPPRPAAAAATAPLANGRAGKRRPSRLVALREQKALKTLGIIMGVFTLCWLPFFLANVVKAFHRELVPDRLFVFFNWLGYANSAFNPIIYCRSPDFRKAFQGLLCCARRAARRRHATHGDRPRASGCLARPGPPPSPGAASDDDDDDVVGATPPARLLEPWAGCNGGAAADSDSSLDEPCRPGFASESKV
| SMILES | IC50 |
| --- | --- |
| C#CCNC(=O)[C@@H]1Cc2cn(CC#CC)c3cccc(c23)[C@H](CC(C)C)N1 | ≥ 100 µM |
| Clc1ccccc1-c1cc(C2CCN(Cc3cc4n(n3)CCNC4)CC2)[nH]n1 | 31.6 µM |
| COc1ccc2c(O[C@H]3CC4C(=O)N(C)CCCCC=C[C@@H]5C[C@@]5(C(=O)N[S+](=O)([O-])C5CC5)NC(=O)[C@@H]4C3)cc(-c3nc(C(C)C)cs3)nc2c1C (stereo partly drawn) | ≥ 100 µM |
| COc1ccc([S+](=O)([O-])N2CCN(c3ccccc3OC)CC2)cc1C | ≥ 100 µM |
| Cc1cccc(-c2n[nH]cc2-c2ccnc3ccccc23)n1 | ≥ 100 µM |
| COc1ccccc1C(=O)Nc1ccc([C@@H](O)[C@H]2COCC(=O)N2Cc2ccc(F)cc2)cc1 | ≥ 100 µM |

Series 5 — technique: Incucyte 3D growth; tested at: 30 µM; reading: higher = more growth
Structure (SMILES): CC(C)(C(=O)O)[C@H](NC(=O)Cc1cccc(I)c1)c1ccc2oc(=O)[nH]c2c1
| cell line | time | spheroid area |
| --- | --- | --- |
| MEL-JUSO | 324.52 h | 3.05e+07 a.u. and 2.63e+07 a.u. and 4.79e+07 a.u. and 3.43e+07 a.u. and 3.07e+07 a.u. and 2.62e+07 a.u. |
| KP-4 | 132 h | 1.57e+07 a.u. and 1.99e+07 a.u. and 1.98e+07 a.u. and 1.96e+07 a.u. and 2.11e+07 a.u. and 1.88e+07 a.u. |
| A375 | 330.52 h | 1.7e+08 a.u. and 1.97e+08 a.u. and 1.9e+08 a.u. and 1.69e+08 a.u. and 1.77e+08 a.u. and 1.68e+08 a.u. |

Series 6 — organism: Sarcocystis neurona; observed: parasite growth; tested at: concentration not given; setting: second screen; relative to: untreated
| Structure (SMILES) | log2 fold change |
| --- | --- |
| CN1CCN(c2nc3cc(C(F)(F)F)ccc3n3cccc23)CC1 | 0.05 |
| Cc1cccc(CCN2CCC(C(=O)c3ccc(NS(C)(=O)=O)cc3)CC2)n1.Cl.Cl | 0.13 |
| CN(CCOc1ccc(CC2SC(=O)NC2=O)cc1)c1ccccn1.Cl (stereo not drawn) | -0.00346 |
| C[C@]12CCC(=O)C=C1CC[C@@H]1[C@@H]2[C@@H](O)C[C@@]2(C)[C@H]1CC[C@]2(O)C(=O)COC(=O)CCC(=O)O | 0.0755 |
| COc1ccc(C(=O)NCc2ccc(OCCN(C)C)cc2)cc1OC.Cl | 0.28 |
| CC(C)NCC(O)c1ccc(O)c(O)c1.Cl (stereo not drawn) | -0.1 |
| Cl.O=C(O)/C=C/c1ccc(Cn2ccnc2)cc1 | 0.3 |

Further values, each from its own experiment
| SMILES | test system | conditions | how to read | endpoint | result |
| --- | --- | --- | --- | --- | --- |
| COc1ccc(-c2c(Nc3ccccn3)[nH]c3c(C4=CCCCC4)c(-c4ccccc4)nn3c2=O)cc1 | human, plasma | oral, 50 mg once daily, cycle 1 | relative to: trough concentration | swing over dosing interval | 0.504 and 0.496 and 0.495 |

For quick reference, copied from above (series 5):
| cell line | time | spheroid area |
| --- | --- | --- |
| MEL-JUSO | 324.52 h | 3.05e+07 a.u. and 2.63e+07 a.u. and 4.79e+07 a.u. and 3.43e+07 a.u. and 3.07e+07 a.u. and 2.62e+07 a.u. |
| KP-4 | 132 h | 1.57e+07 a.u. and 1.99e+07 a.u. and 1.98e+07 a.u. and 1.96e+07 a.u. and 2.11e+07 a.u. and 1.88e+07 a.u. |
| A375 | 330.52 h | 1.7e+08 a.u. and 1.97e+08 a.u. and 1.9e+08 a.u. and 1.69e+08 a.u. and 1.77e+08 a.u. and 1.68e+08 a.u. |
